# Assay results gathered from unrelated publications.
# Protocols differ between the studies behind these lines. Several values in a cell are separate wells, animals, samples, runs or records. Numbers after ± are the reported error.
SMILES,cell line,test,test system,setting,how to read,measurement,result
O=c1ccc2ccccc2o1,HepG2,refers to: cell count,,"concentration not given, 1 h, necrosis and apoptosis panel",,probability of response,0.03%
N#C[C@@]1(n2ccc(N)nc2=O)O[C@H](CO)[C@@H](O)[C@H]1O,CHO,,,"130 µM, with S9",,micronucleated cells,0.21%
C[C@H]1CCC/C=C/[C@@H]2C[C@H](O)C[C@H]2[C@H](O)/C=C/C(=O)O1,differentiated THP-1,,,72 h,reference: THP-1 CC50 over EC50,selectivity index,1
CC[C@H](C)[C@H](NC(=O)[C@H](CCCCN)NC(=O)[C@H](CC(C)C)NC(=O)[C@H](CCSC)NC(=O)[C@H](CO)NC(=O)[C@H](C)NC(=O)CNC(=O)[C@H](CCCCN)NC(=O)[C@H](CCCCN)NC(=O)[C@H](CC(N)=O)NC(=O)CNC(=O)[C@H](CCCCN)NC(=O)[C@H](CC(C)C)NC(=O)[C@H](CCCNC(=N)N)NC(=O)[C@@H](NC(=O)[C@H](CC(C)C)NC(=O)[C@H](Cc1ccc(O)cc1)NC(=O)[C@H](CCCCN)NC(=O)[C@H](C)NC(=O)[C@H](CCCCN)NC(=O)[C@@H]1CCCN1C(=O)[C@H](CCCCN)NC(=O)CNC(=O)[C@H](CCCNC(=N)N)NC(=O)[C@H](CC(C)C)NC(=O)[C@H](CCC(N)=O)NC(=O)[C@@H](N)Cc1ccccc1)C(C)C)C(=O)N[C@@H](CC(C)C)C(=O)N[C@@H](C)C(=O)N[C@H](C(=O)N[C@H](C(=O)N[C@@H](CCCNC(=N)N)C(=O)N1CCC[C@H]1C(=O)N[C@H](C(=O)N[C@@H](CCCCN)C(=O)N[C@@H](CCC(N)=O)C(=O)N[C@@H](CO)C(=O)N[C@@H](Cc1ccccc1)C(=O)N1CCC[C@H]1C(=O)N[C@@H](CO)C(=O)N[C@@H](CC(C)C)C(=O)N1CCC[C@H]1C(=O)O)[C@@H](C)O)[C@@H](C)O)[C@@H](C)O,"THP-1, PMA-differentiated","cell viability, MTT",,,,CC50,64.6 µM
CC(C)C[C@@H](NC(=O)[C@H](N)CCCCN)C(=O)N[C@H](CC(C)C)C(=O)N[C@H](Cc1ccccc1)C(=O)N[C@H](Cc1ccccc1)C(=O)N[C@H](C)C(N)=O,NGF-differentiated PC-12 neurons,,,"20 µM, 24 h",reference: untreated,viability,97.2%
Cc1cc(Nc2ccnc3ccc(-c4ccc(S(=O)(=O)N5CCOCC5)cc4)cc23)sn1,NIH 3T3,"cytotoxicity, PrestoBlue",,"96 h, 2% FBS",,TC50,> 20 µM
Cc1ccc2[nH]c3c(c2c1)CCCC3NCCc1cccc(Br)c1 (stereo not drawn),A549,,,"50 µM, 23 h",,non-viable cells,56.4 ± 20.1%
Oc1ccc(C(c2ccc(O)cc2)(C(F)(F)F)C(F)(F)F)cc1,HepG2 spheroids,annexin V-FITC/PI flow cytometry,,"0.10 µM, 96 h",,necrotic cells,52.6 ± 9.63%
CC(C)C[C@@H](N)C(=O)N[C@H](CC(C)C)C(=O)N[C@H](Cc1ccccc1)C(=O)N[C@H](Cc1ccccc1)C(=O)N[C@H](C)C(=O)N[C@H](CCC(=O)O)C(N)=O,NGF-differentiated PC-12 neurons,,,"40 µM, 24 h",reference: untreated,viability,97.2%
CC(c1ccccc1)(c1ccc(O)cc1)c1ccc(O)cc1,HepG2 spheroids,annexin V-FITC/PI flow cytometry,,"10 µM, 24 h",,necrotic cells,7.84 ± 2.36%
NCCc1ccc(O)cc1,HCT-8 infected with Cryptosporidium parvum,Hoechst nuclei count,,"1 mM, 24 h",reference: PBS,host cell number,1.05 ± 0.036
CC(C)C[C@@H](N)C(=O)N1CCC[C@@H]1C(=O)N[C@H](Cc1ccccc1)C(=O)N[C@H](Cc1ccccc1)C(=O)N[C@H](C)C(N)=O,NGF-differentiated PC-12 neurons,,,"40 µM, 24 h",reference: untreated,viability,100%
Cc1ccc(C)c(Nc2cc(C(=O)NCCCN(C)C3CCCCC3)c3ccccc3n2)c1,Vero-E6,CellTiter-Glo ATP,,"72 h, second round 5-point","reference: DMSO 0%, hyamine -100%, more negative, more toxic",maximum response,-27.8%
c1cncc(-c2nn3c(Cn4nnc5ccccc54)nnc3s2)c1,HEp-2,cytotoxicity,,,,CC50,> 100 µM
CN1CCCN(S(=O)(=O)c2ccc(-c3ccc4ncc(C#N)c(Nc5ccc(OCc6ccccc6)c(Cl)c5)c4c3)cc2)CC1,NIH 3T3,PrestoBlue,2% FBS medium,96 h,,TC50,11 µM
COc1ccc(Nc2nn3c(-c4ccccc4)ccnc3c2C(=O)Nc2ccc(Cl)cc2)cc1,WI-38,MTT,serum-free medium,"500.00 µg/mL, 48 h",,viability,61.7%
O=S(=O)(c1ccc(O)cc1)c1ccc(O)cc1,HepG2 spheroids,annexin V-FITC/PI flow cytometry,,"40 µM, 24 h",,necrotic cells,7.52 ± 2.4%
CC(C)C[C@@H](NC(=O)[C@H](N)CCCCN)C(=O)N[C@H](CC(C)C)C(=O)N[C@H](Cc1ccccc1)C(N)=O,NGF-differentiated PC-12 neurons,,,"20 µM, 24 h",reference: untreated,viability,98.7%
COc1ccc([C@@H]2CC(=O)c3c(O)cc(O[C@@H]4O[C@H](CO[C@@H]5O[C@@H](C)[C@H](O)[C@@H](O)[C@H]5O)[C@@H](O)[C@H](O)[C@H]4O)cc3O2)cc1O,BEAS-2B,fluorogenic substrate,,"10 µM, 24 h",reference: control,CYP1A1 induction,1.6 fold
Oc1ccc(C2(c3ccc(O)cc3)c3ccccc3-c3ccccc32)cc1,HepG2 spheroids,annexin V-FITC/PI flow cytometry,,"40 µM, 24 h",,necrotic cells,5.6 ± 2.47%
O=[N+]([O-])c1ccc(Nc2ccnc3ccc(-c4ccc(S(=O)(=O)N5CCOCC5)cc4)cc23)cn1,NIH 3T3,"cytotoxicity, PrestoBlue",,"96 h, 2% FBS",,TC50,> 20 µM
COc1ccc2c(Sc3ccccc3)c(C(=O)NCCCN3CCCCC3)[nH]c2c1,Vero-E6,CellTiter-Glo ATP,,"72 h, retest 8-point duplicates","reference: DMSO 0%, hyamine -100%, more negative, more toxic",maximum response,-19.1%
O=NN1CC2CC(C1)c1cc3nccnc3cc12,TK6,,,"10 µM, 4 h, added: hamster liver S9",reference: vehicle,relative survival,112%
CN(C)c1ccc(C(Nc2nc3c(-c4ccc([N+](=O)[O-])cc4)nn(-c4ccccc4)c3s2)P(=O)(Oc2ccccc2)Oc2ccccc2)cc1 (stereo not drawn),BNL mouse liver cells,SRB,,"10 µM, 10% fetal bovine serum",,viability,87.6%
CC(C)C[C@@H](NC(=O)[C@H](N)CCCCN)C(=O)N1CCC[C@@H]1C(=O)N[C@H](Cc1ccccc1)C(=O)N[C@H](Cc1ccccc1)C(=O)N[C@H](C)C(=O)N[C@H](CCC(=O)O)C(N)=O,NGF-differentiated PC-12 neurons,,,"5 µM, 24 h",reference: untreated,viability,100%
N.N.[Cl][Pt][Cl],HepaRG,micronucleus formation,,,,lowest effective concentration,16 µM
Cc1cc(C(C)(C)c2ccc(O)c(C)c2)ccc1O,HepG2 spheroids,annexin V-FITC/PI flow cytometry,,"1 µM, 96 h",,late apoptotic cells,32.9 ± 6.22%
O=S(=O)(c1ccc(-c2ccc3nccc(Nc4ccccn4)c3c2)cc1)N1CCOCC1,NIH 3T3,"cytotoxicity, PrestoBlue",,"96 h, 2% FBS",,TC50,> 20 µM
c1ccc(CCNC2CCCc3c2[nH]c2ccccc32)cc1 (stereo not drawn),A549,,,"50 µM, 23 h",,non-viable cells,13 ± 14.8%
CC(=O)O[C@H]1CC[C@]2(C)[C@H]3CC[C@]4(C)Oc5cc(C)oc(=O)c5C[C@H]4[C@]3(C)CC[C@H]2C1(C)C,Calu-3,,,50 µM,,cytotoxicity,0%
C#CC[C@H](NC(=O)[C@H](CCCCN)NC(=O)[C@H](CCCCN)NC(=O)[C@H](Cc1c[nH]c2ccccc12)NC(=O)[C@H](CCCCN)NC(=O)[C@H](CCSC)NC(=O)[C@H](CCCNC(=N)N)NC(=O)[C@H](CCCNC(=N)N)NC(=O)[C@H](CC(N)=O)NC(=O)[C@H](CCC(N)=O)NC(=O)[C@H](Cc1ccccc1)NC(=O)[C@H](Cc1c[nH]c2ccccc12)NC(=O)[C@@H](NC(=O)[C@H](CCCCN)NC(=O)[C@@H](NC(=O)[C@H](CCC(N)=O)NC(=O)[C@@H](N)CCCNC(=N)N)[C@@H](C)CC)[C@@H](C)CC)C(=O)N[C@@H](CC(N)=O)C(=O)N[C@@H](Cc1c[nH]cn1)C(=O)N[C@H](C(=O)N[C@@H](CCSC)C(=O)N[C@@H](CC(C)C)C(=O)N[C@@H](CC(N)=O)C(=O)N[C@@H](Cc1c[nH]cn1)C(=O)N[C@@H](CC(C)C)C(=O)N[C@@H](Cc1ccc(O)cc1)C(=O)N[C@@H](C)C(=O)N[C@@H](CC(C)C)C(=O)N[C@@H](CO)C(=O)N[C@H](C(=O)N[C@@H](CCCCN)C(=O)N[C@@H](CC(=O)O)C(=O)NCC(=O)N[C@H](C(N)=O)C(C)C)[C@@H](C)CC)C(C)C,C26,,,"2.2 µM, two days",,cell growth,no effect
COc1ccccc1-c1ccc(CN2CCCC(c3nc4ccc(C)cc4c(=O)[nH]3)C2)cc1 (stereo not drawn),Vero-E6,CellTiter-Glo ATP,,"concentration not given, 72 h, first round 5-point","reference: DMSO 0%, hyamine -100%, more negative, more toxic",cytotoxicity efficacy,-32.7%
CC(C)C[C@@H](N)C(=O)N[C@H](Cc1ccccc1)C(=O)N[C@H](Cc1ccccc1)C(=O)N[C@H](C)C(=O)N[C@H](CCC(=O)O)C(N)=O,NGF-differentiated PC-12 neurons,,,"40 µM, 24 h",reference: untreated,viability,65.3%
COc1cccc(-c2ccc(CN3CCCC(c4nc5ccc(C)cc5c(=O)[nH]4)C3)cc2)c1 (stereo not drawn),Vero-E6,CellTiter-Glo ATP,,"concentration not given, 72 h, second round 5-point","reference: DMSO 0%, hyamine -100%, more negative, more toxic",cytotoxicity efficacy,0%
CCn1nccc1Nc1ccnc2ccc(-c3ccc(S(=O)(=O)N4CCOCC4)cc3)cc12,NIH 3T3,"cytotoxicity, PrestoBlue",,"96 h, 2% FBS",,TC50,> 20 µM
Ic1ccccc1-c1nn2c(Cn3cnc4ccccc43)nnc2s1,HEp-2,cytotoxicity,,,,CC50,55.9 µM
Cc1c2ccccc2c(C)c2c1ccc1ccccc12,HepaRG,,,"maximum tested, 24 (unit not given)",,micronucleated cells,2.6%
CCCCN(CCCC)CCCNC(=O)c1cc(-c2ccc(Cl)s2)nc2ccccc12,Vero-E6,CellTiter-Glo ATP,,"concentration not given, 72 h, second round 5-point","reference: DMSO 0%, hyamine -100%, more negative, more toxic",cytotoxicity efficacy,0%
CC(C)C[C@@H](NC(=O)[C@H](N)CCCCN)C(=O)N[C@H](CC(C)C)C(=O)N[C@H](Cc1ccccc1)C(=O)N[C@H](Cc1ccccc1)C(N)=O,NGF-differentiated PC-12 neurons,,,"20 µM, 24 h",reference: untreated,viability,99%
CC(C)C[C@H](NC(=O)[C@H](C)NC(=O)[C@@H](NC(=O)[C@H](CCCNC(=N)N)NC(=O)[C@H](CC(C)C)NC(=O)[C@H](Cc1c[nH]c2ccccc12)NC(=O)[C@@H]1CCCN1C(=O)[C@@H](N)CCCCN)C(C)C)C(=O)N[C@@H](CS)C(=O)N1CCC[C@H]1C(=O)NCC(=O)O,A549,WST-1,,"128 µM, 24 h",,viability,87.6% and 95.5% and 95.9%
Cc1nc2ccccc2n1Cc1nnc2sc(-c3ccc(Cl)nc3Cl)nn12,HEp-2,cytotoxicity,,,,CC50,> 100 µM
CCCCN(C)CCNC(=O)c1cc(-c2ccc(Cl)s2)nc2ccccc12,Vero-E6,CellTiter-Glo ATP,,"concentration not given, 72 h, retest 8-point duplicates","reference: DMSO 0%, hyamine -100%, more negative, more toxic",cytotoxicity efficacy,-55.7%
CN(C)N=O,HepaRG,micronucleus formation,,,,lowest effective concentration,1600 µM
CN(CC[C@H](Oc1cccc2ccccc12)c1cccs1)N=O,TK6,,,"1.25 µM, 4 h, added: hamster liver S9",reference: vehicle,relative survival,60%
Cc1ccc2c(NC(C)c3ccccc3)nc(N3CCNCC3)nc2c1 (stereo not drawn),Vero-E6,CellTiter-Glo ATP,,"72 h, retest 8-point duplicates","reference: DMSO 0%, hyamine -100%, more negative, more toxic",maximum response,-17.4%
CC(C)C[C@@H](N)C(=O)N1CCC[C@@H]1C(=O)N[C@H](Cc1ccccc1)C(=O)N[C@H](Cc1ccccc1)C(=O)N[C@H](C)C(=O)N[C@H](CCC(=O)O)C(N)=O,NGF-differentiated PC-12 neurons,,,"40 µM, 24 h",reference: untreated,viability,97.3%
CCN1CCN(c2cc(C)c3cc(NC(=O)c4cccc(Cl)c4)ccc3n2)CC1,Vero-E6,CellTiter-Glo ATP,,"72 h, first round 5-point","reference: DMSO 0%, hyamine -100%, more negative, more toxic",maximum response,-0.887%
N.N.O=C([O-])C1(C(=O)[O-])CCC1.[Pt+2],T47D,"cell viability, MTT",,48 h,,IC50,117 ± 3.23 µM

# A few entries again:
SMILES,cell line,test,test system,setting,how to read,measurement,result
CCCCN(CCCC)CCCNC(=O)c1cc(-c2ccc(Cl)s2)nc2ccccc12,Vero-E6,CellTiter-Glo ATP,,"concentration not given, 72 h, second round 5-point","reference: DMSO 0%, hyamine -100%, more negative, more toxic",cytotoxicity efficacy,0%
COc1ccc2c(Sc3ccccc3)c(C(=O)NCCCN3CCCCC3)[nH]c2c1,Vero-E6,CellTiter-Glo ATP,,"72 h, retest 8-point duplicates","reference: DMSO 0%, hyamine -100%, more negative, more toxic",maximum response,-19.1%
